# Results pooled from the literature.
# ± gives the spread as reported.
# Sequence of UniProt Q3TKT4 (whole entry, looked up): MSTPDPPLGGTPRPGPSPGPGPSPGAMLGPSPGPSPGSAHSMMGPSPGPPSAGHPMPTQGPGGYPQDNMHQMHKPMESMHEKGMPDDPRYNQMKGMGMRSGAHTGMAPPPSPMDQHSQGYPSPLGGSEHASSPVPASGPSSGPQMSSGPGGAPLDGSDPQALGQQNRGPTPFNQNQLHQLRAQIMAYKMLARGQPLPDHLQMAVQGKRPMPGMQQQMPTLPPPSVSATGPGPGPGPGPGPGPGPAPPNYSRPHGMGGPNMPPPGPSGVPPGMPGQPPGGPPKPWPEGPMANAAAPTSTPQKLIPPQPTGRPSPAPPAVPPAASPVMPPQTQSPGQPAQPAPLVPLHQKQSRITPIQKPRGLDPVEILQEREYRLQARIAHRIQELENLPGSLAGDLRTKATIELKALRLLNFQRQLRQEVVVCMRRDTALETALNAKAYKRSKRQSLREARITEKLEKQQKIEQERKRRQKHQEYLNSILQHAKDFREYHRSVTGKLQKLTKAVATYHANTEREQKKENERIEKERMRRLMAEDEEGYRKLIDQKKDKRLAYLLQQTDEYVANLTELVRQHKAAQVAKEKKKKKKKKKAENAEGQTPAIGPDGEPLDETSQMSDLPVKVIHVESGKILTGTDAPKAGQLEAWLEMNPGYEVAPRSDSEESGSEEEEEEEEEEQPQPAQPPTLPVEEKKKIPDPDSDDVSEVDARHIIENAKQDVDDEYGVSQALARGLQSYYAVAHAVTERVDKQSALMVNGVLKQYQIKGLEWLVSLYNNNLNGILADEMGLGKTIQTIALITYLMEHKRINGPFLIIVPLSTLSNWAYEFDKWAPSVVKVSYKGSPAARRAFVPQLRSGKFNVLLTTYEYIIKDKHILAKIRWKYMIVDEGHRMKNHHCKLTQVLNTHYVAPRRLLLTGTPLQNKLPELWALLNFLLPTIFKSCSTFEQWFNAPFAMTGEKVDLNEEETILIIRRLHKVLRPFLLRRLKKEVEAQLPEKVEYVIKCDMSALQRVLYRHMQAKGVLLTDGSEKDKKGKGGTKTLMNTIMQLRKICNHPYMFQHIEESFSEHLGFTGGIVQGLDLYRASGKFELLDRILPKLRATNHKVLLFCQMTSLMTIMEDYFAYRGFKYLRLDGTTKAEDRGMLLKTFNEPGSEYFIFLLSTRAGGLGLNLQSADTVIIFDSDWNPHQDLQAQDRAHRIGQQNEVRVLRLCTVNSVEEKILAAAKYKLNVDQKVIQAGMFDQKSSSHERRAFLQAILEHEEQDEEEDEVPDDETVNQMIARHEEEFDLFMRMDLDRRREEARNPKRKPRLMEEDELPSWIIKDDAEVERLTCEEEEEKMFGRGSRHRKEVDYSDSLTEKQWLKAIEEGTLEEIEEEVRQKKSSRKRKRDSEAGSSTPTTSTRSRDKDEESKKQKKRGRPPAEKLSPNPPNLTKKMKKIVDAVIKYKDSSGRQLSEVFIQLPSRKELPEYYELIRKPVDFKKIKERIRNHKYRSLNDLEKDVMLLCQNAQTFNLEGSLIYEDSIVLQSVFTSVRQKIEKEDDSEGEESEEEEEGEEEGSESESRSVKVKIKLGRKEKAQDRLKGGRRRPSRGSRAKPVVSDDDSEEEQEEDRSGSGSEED
Oligonucleotide,target,test,system,setting,quantity,result
GGGCGUCCCUCCCGAAGCUGCGCGCUCGGUCGAAGAGGACGACC (structured RNA),"Smarca4 AT-hook (Mus musculus, UniProt Q3TKT4)",EMSA,folded RNA,added: Mg2+ 5 mM,Kd,410 nM
TCAGTGACCCATCTTGCTGAGTCATGCTAAACCTGTTGA (dsDNA),NRF2/MAFG (Homo sapiens),competition EMSA,"double-stranded DNA, one strand shown",500 nM,binding,binds
"CGATCATGGAGCCACGAGCTCCCGTTACAG / CTGTAACGGGAGCTAGTGGCTCCATGATCG (dsDNA; blunt, 8-oxoG:2'-fluoro-arabino-A pair)",MUTYH 1-535 S524D (Homo sapiens),EMSA,,,Kd,1.8 ± 0.1 nM
AATCCGCAGTCACAGTGACTCAGCAGAATCTGAGCCTAG (dsDNA),NRF2/MAFG (Homo sapiens),EMSA,"double-stranded DNA, one strand shown",,binding,binds
AAGGGGGGCTATAAAAGGGGGTGGGGGCGCGTTCGTCCTCACTCTCTTCCCCTCCATACC (dsDNA),TBP/GTF2B 1-339; 1-316 with insertion (Homo sapiens),EMSA,"double-stranded DNA, one strand shown",uncleaved,binding,binds

# Repeated from above:
Oligonucleotide,target,test,system,setting,quantity,result
AATCCGCAGTCACAGTGACTCAGCAGAATCTGAGCCTAG (dsDNA),NRF2/MAFG (Homo sapiens),EMSA,"double-stranded DNA, one strand shown",,binding,binds
